Experimental data of several laboratories.
Every numbered part comes from another study and shows a few of its results, in no order. Positions count from the first letter of the parent shown.

Set 1
Target: ABI1, truncated, D143A, DHFR fusion (Arabidopsis thaliana)
Technique: DHFR PCA, deep sequencing
Matrix: yeast
Setting: methotrexate growth selection, single substitutions
With: (+)-ABA 0.11 µM
Relative to: wild-type fitted maximum
Reading: higher = stronger binding
Parent: PYL1, truncated, DHFR fusion (Arabidopsis thaliana); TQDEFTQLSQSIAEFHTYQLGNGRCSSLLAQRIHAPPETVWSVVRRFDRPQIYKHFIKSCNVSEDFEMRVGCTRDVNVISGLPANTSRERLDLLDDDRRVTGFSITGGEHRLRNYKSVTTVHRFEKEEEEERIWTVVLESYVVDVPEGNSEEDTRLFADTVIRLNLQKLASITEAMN
| Change | relative binding score |
| --- | --- |
| D96G | -1.56% |
| R98W | 4.73% |
| S171Y | 25.6% |
| A175Q | 40.5% |
| R132M | 40.5% |
| D65Q | 21.4% |
| S80Y | 64.1% |
| I162C | 8.48% |
| V44S | -1.56% |
| I12E | -2.92% |
| S42K | 20.7% |
| E174K | -1.13% |
| R99V | 1.84% |
| A30P | 3.45% |
| H55W | 46% |

Set 2
Target: UBE2M UBC core domain (UniProt P61081)
Technique: yeast two-hybrid
Matrix: yeast
Setting: mostly zero background
Relative to: not given
Reading: higher = stronger interaction
B1: CNOT4 RING domain (UniProt O95628); chain MSRSPDAKEDPVECPLCMEPLEIDDINFFPCTCGYQICRFCWHRIRTDENGLCPACRKPYPED
B2: MARCHF1 RING domain (UniProt Q8TCQ1); chain TAPRSQSRLSVCPSTQDICRICHCEGDEESPLITPCRCTGTLRFVHQSCLHQWIKSSDTRCCELCKYDFIMETKLKPLRKWE
B3: TRIM41 RING domain (UniProt Q8WV44); chain PVQTLQEEAVCAICLDYFTDPVSIGCGHNFCRVCVTQLWGGEDEEDRDELDREEEEEDGEEE
B4: NFX1 RING domain (UniProt Q12986); chain IEQLTTEKYECMVCCELVRVTAPVWSCQSCYHVFHLNCIKKWARSPASQADGQSGWRCPACQNVSAHVPNTY
B5: VPS8 RING domain (UniProt Q8N3P4); chain TRGLNPKQDYCSICLQQYKRRQEMADEIIVFSCGHLYHSFCLQNKECTVEFEGQTRWTCYKCSSSNKVGKLSE
B6: RING1 RING domain (UniProt Q06587); chain SPRSLHSELMCPICLDMLKNTMTTKECLHRFCSDCIVTALRSGNKECPTCRKKLVSKRSLR
Target sequence (chain): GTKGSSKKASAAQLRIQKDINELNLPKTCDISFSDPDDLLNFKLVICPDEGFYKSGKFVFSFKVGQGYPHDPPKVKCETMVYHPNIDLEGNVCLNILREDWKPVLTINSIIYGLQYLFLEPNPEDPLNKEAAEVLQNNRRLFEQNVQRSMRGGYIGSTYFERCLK
| Sequence | lacZ reporter activity |
| --- | --- |
| B1 (CNOT4 RING domain) | 0 |
| LVKDFNPYITCYICKGYLIKPTTVTECLHTFCKTCIVQHFEDSNDCPRCGNQVHETNPLE (PCGF5 RING domain (UniProt Q86SE9)) | 0 |
| B2 (MARCHF1 RING domain) | 0 |
| LEALSSDFLACKICLEQLRAPKTLPCLHTYCQDCLAQLADGGRVRCPECRETVPVPPEGV (TRIM56 RING domain (UniProt Q9BRZ2)) | 0 |
| ASEEEFQFLRCQQCQAEAKCPKLLPCLHTLCSGCLEASGMQCPICQAPWPLGADTP (PML RING domain (UniProt P29590)) | 0 |
| B3 (TRIM41 RING domain) | 0 |
| B4 (NFX1 RING domain) | 0 |
| FAEQPSVKLCCQLCCSVFKDPVITTCGHTFCRRCALKSEKCPVDNVKLTVVVNNI (TRAF7 RING domain (UniProt Q6Q0C0)) | 0 |
| B5 (VPS8 RING domain) | 0 |
| B6 (RING1 RING domain) | 0 |

Set 3
Target: Histone acetyltransferase KAT6A, both winged helices, GST fusion (KAT6A, Homo sapiens, UniProt Q92794, residues 1-181)
Technique: protein binding microarray
Form: double-stranded DNA, one strand shown
Matrix: in vitro
Tested at: not given
Setting: 8-mer, flanks averaged, mean of 2 arrays, mostly near background
Relative to: not given
Reading: higher = stronger binding
Residues (chain): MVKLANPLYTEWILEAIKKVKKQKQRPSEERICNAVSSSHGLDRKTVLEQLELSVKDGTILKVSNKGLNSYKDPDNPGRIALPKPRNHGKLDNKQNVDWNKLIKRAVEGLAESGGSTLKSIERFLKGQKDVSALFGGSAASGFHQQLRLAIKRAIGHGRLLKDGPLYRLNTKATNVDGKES
| Sequence | E-score |
| --- | --- |
| CTAAATTC | -0.147 |
| TAGGACTA | 0.0256 |
| AAATGATG | -0.00972 |
| CCCAGAGA | -0.17 |
| AAGTGCTA | -0.156 |
| ACACATCG | -0.132 |
| ATTCGCCC | 0.0824 |
| AGAGGTGG | -0.201 |
| TACCTACA | -0.0603 |
| CTTCTAAA | -0.185 |
| TGACAAAA | -0.133 |
| ATACGACC | 0.0679 |
| TAAATGTA | -0.0741 |
| CTGGTCTA | -0.0691 |
| CGTAAACG | 0.219 |
| CTGCTAAA | -0.102 |

Set 4
Target: Interferon regulatory factor 7, full length, phosphomimetic (IRF7, Homo sapiens, UniProt Q92985, residues 1-503, S471D/S472D/S475D/S476D/S477D/S483D/S484D/S487D)
Technique: protein-binding microarray
Form: double-stranded DNA, one strand shown
Matrix: in vitro
Tested at: 2200 nM top
Setting: 60-bp whole probe
With: salmon DNA 0.4 mg/ml
Relative to: random background probes
Reading: higher = stronger binding
Constant ends, left off below: GCCTAGCAC … GTCTTGATTCGCTTGACGCTGCTG
Construct (chain): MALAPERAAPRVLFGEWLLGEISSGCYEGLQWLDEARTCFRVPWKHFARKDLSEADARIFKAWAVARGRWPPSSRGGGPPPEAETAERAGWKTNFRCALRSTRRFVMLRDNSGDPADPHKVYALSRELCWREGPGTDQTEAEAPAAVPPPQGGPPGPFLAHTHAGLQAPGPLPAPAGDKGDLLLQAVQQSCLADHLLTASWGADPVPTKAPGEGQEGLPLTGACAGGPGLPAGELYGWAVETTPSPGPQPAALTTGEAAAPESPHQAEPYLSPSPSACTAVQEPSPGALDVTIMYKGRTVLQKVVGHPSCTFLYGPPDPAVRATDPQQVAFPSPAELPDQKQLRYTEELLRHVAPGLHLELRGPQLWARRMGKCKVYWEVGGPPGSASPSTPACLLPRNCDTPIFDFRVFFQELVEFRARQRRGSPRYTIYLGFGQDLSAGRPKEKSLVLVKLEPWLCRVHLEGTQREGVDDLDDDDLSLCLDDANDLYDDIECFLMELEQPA
| Sequence | fitted relative affinity [z-score] |
| --- | --- |
| TTTGGTTTCGGGTATCGGTTAGTGCTA | 7.65 |
| TTAGGTTTCGGGTTGCGGTTAGTGCTA | 11.6 |
| TTAGGTATCGGTTTCGGTTCGTGCTAG | 12.6 |
| TTTCTTTTCCATTTTGTGTTGTGCTAG | 7.41 |
| CTTGCTACACATCTCACTCTGTGCTAG | 1.44 |
| TTTGGTTTCGACACTGGGTTAGTGCTA | 4.01 |
| GACGATATCGGGTAACGAGACGTGCTA | -0.311 |
| TTAGGACTGGGTATAGGTTAGTGCTAG | -0.44 |
| GACGGTTTCCTTTCCCTGACGTGCTAG | 4.75 |
| GACGAACTGAGTTTCGAGTCGTGCTAG | 4.19 |
| TTAGGACTGCTACTACTTTAGTGCTAG | 0.131 |
| GACGGTTCCGGTTTGGGGACGTGCTAG | 3.8 |
| TTAGGACTGGGGGTTCGGTTAGTGCTA | 0.346 |
| GGCGATCTCAGTCTCGAGACGTGCTAG | -0.164 |
| TCACATTGCCTATTTTTCACTGTGCTA | 2.14 |
| GACGGCTTCGGTTTCGGGACGTGCTAG | 3.66 |
| ATCACTTTCCACTTGTCTTTGTGCTAG | 8.29 |
| TCATTCCTCTTTTTTGTACTGTGCTAG | 2.86 |
| TTAGGACTACTACTGCTTTAGTGCTAG | 0.222 |

Some of these lines once more (set 2):
| Sequence | lacZ reporter activity |
| --- | --- |
| B1 (CNOT4 RING domain) | 0 |
| LVKDFNPYITCYICKGYLIKPTTVTECLHTFCKTCIVQHFEDSNDCPRCGNQVHETNPLE (PCGF5 RING domain (UniProt Q86SE9)) | 0 |
| B2 (MARCHF1 RING domain) | 0 |
| LEALSSDFLACKICLEQLRAPKTLPCLHTYCQDCLAQLADGGRVRCPECRETVPVPPEGV (TRIM56 RING domain (UniProt Q9BRZ2)) | 0 |
| ASEEEFQFLRCQQCQAEAKCPKLLPCLHTLCSGCLEASGMQCPICQAPWPLGADTP (PML RING domain (UniProt P29590)) | 0 |
| B3 (TRIM41 RING domain) | 0 |
| B4 (NFX1 RING domain) | 0 |
| FAEQPSVKLCCQLCCSVFKDPVITTCGHTFCRRCALKSEKCPVDNVKLTVVVNNI (TRAF7 RING domain (UniProt Q6Q0C0)) | 0 |
| B5 (VPS8 RING domain) | 0 |
